Published values gathered from unrelated publications.
Each numbered part is a random draw from the data of one study; scales do not carry over between parts.
UniProt P08588, sequence (whole entry, looked up): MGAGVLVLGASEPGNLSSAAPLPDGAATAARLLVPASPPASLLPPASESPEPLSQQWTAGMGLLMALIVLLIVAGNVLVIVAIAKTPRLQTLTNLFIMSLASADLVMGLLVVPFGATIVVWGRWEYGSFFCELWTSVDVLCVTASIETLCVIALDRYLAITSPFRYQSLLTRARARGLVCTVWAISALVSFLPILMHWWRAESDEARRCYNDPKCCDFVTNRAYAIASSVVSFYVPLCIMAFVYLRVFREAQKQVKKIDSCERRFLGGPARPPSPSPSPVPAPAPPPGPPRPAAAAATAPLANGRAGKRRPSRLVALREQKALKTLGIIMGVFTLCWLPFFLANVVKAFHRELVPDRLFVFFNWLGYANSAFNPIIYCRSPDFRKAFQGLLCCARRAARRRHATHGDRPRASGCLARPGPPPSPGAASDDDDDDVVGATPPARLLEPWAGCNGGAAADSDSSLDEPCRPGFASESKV

Series 1
Sequence: DTFDEAFLAAVRSHQG
Molecule type: peptide
Reading: direction not given
For Saccharomyces cerevisiae; cell growth, competitive growth deep sequencing; peptide tiling library, together with: cyclin F-Cln2 fusion: enrichment score read 1.07.
For Cln2 (Saccharomyces cerevisiae); peptide binding, competitive growth sequencing; Saccharomyces cerevisiae, unfused Cln2 strain; peptide tiling library: enrichment score read 1.08.
The enrichment score was 1.02 (Saccharomyces cerevisiae; cell growth, competitive growth deep sequencing; peptide tiling library, together with: cyclin E2-Cln2 fusion).
It gave 1.08 for enrichment score (peptide binding; yeast competitive growth; together with: B1-Cln2 chimera).

Mixed results
HLA class I histocompatibility antigen, B alpha chain allele B*39:01: HLA class I histocompatibility antigen, B alpha chain, allele B*39:01 (Homo sapiens, UniProt P01889)
For `HHIWQNLL`, binding read “inactive” (HLA class I histocompatibility antigen, B alpha chain allele B*39:01; peptide-MHC binding; peptide; concentration not given).
With `c1ccc(C2CC2)c(OCC2=NCCN2)c1` the Emax was 90.2% (ADRB1 (Homo sapiens, UniProt P08588); agonist).
Under binding, `LNTVATLY` is recorded as “inactive” (HLA class I histocompatibility antigen, B alpha chain allele B*39:01; peptide-MHC binding; peptide; concentration not given).
`O=c1[nH]c2ccccc2n1CCCN1CCC(n2c(=O)[nH]c3cc(Cl)ccc32)CC1` gave a nuclei count of 2.74 z-score (mouse MPNST tumor cells; high-content nuclear imaging, item: cell number; 10 µM, 12 h, mean of 2 replicates; baseline: plate mean, higher = more cells).

Repeated from above (series 1):
For Saccharomyces cerevisiae; cell growth, competitive growth deep sequencing; peptide tiling library, together with: cyclin F-Cln2 fusion: enrichment score read 1.07.
